{"data": "Measured values collected from several papers", "note": "Each numbered part is a random draw from the data of one study; scales do not carry over between parts."}
{"data": "Set 1", "target": "Prothrombin, mature alpha-thrombin (F2, Homo sapiens, UniProt P00734)", "technique": "aptamer microarray, sandwich", "form": "DNA with 2'F-ANA", "matrix": "in vitro", "concentration": "200 nM", "setting": "whole 15-mer aptamer, many near background", "added": "Cy3 exosite-II aptamer, 400 nM", "direction": "higher = stronger binding", "strand": "GGTTGGTGTGGTTGG"}
{"Modification": "2'F-ANA at 2 8 9 14", "mean fluorescence intensity": "141 a.u."}
{"Modification": "2'F-ANA at 1 2 4 8 10 12 14", "mean fluorescence intensity": "47.7 a.u."}
{"Modification": "2'F-ANA at 1 2 5 8 9 13 14 15", "mean fluorescence intensity": "48.7 a.u."}
{"Modification": "2'F-ANA at 6 7 10 11 12 14 15", "mean fluorescence intensity": "107 a.u."}
{"Modification": "2'F-ANA at 1 3 6 7 8 9 10 11 13 14", "mean fluorescence intensity": "75.9 a.u."}
{"Modification": "2'F-ANA at 2 4 6 9 10 11 12 13 14", "mean fluorescence intensity": "62.3 a.u."}
{"Modification": "2'F-ANA at 1 3 4 7 8 11 13 14", "mean fluorescence intensity": "104 a.u."}
{"Modification": "2'F-ANA at 1 7 12", "mean fluorescence intensity": "385 a.u."}
{"Modification": "2'F-ANA at 1 5 8 9 13", "mean fluorescence intensity": "48.9 a.u."}
{"Modification": "2'F-ANA at 2 5 7 8 9 15", "mean fluorescence intensity": "82.5 a.u."}
{"Modification": "2'F-ANA at 1 3 5 6 7 11 12 13 15", "mean fluorescence intensity": "81.2 a.u."}
{"Modification": "2'F-ANA at 2 3 5 7 10 13 14 15", "mean fluorescence intensity": "63.9 a.u."}
{"Modification": "2'F-ANA at 1 2 5 6 7 12", "mean fluorescence intensity": "229 a.u."}
{"Modification": "2'F-ANA at 5 9 10 11 15", "mean fluorescence intensity": "51.3 a.u."}
{"Modification": "2'F-ANA at 5 8 15", "mean fluorescence intensity": "110 a.u."}
{"Modification": "2'F-ANA at 1 9 10 12 13 14", "mean fluorescence intensity": "46.5 a.u."}
{"data": "Set 2", "target": "RNA binding protein fox-1 homolog 2, RRM domain, GST-SBP tag (RBFOX2, Homo sapiens, UniProt O43251-10, residues 100-194)", "technique": "RNA Bind-n-Seq", "form": "RNA", "matrix": "in vitro", "concentration": "365 nM", "setting": "natural RNA segment, single round, ends assumed", "relative to": "no-protein control", "direction": "higher = stronger binding", "constant ends, left off below": "GGGAGUUCUACAGUCCGACGAUC … UGGAAUUCUCGGGUGCCAA", "Residues (chain)": "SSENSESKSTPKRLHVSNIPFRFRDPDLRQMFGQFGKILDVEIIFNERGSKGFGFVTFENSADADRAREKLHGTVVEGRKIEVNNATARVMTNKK"}
{"Strand": "UACUGUCAAACAAUAAAGGGAGAAUGGUGCUGUUUAAAGUCACAUCCCUGUAAAUUGCAGAAUUCAAAAGUGAUUAUCUCUUUGAUCUACUUGCCUCAUUUCCCUAUCUU", "RBNS enrichment (R)": 0.39}
{"Strand": "CUCGCGCUGGCCAGGAUCCUCCUGCCGAGCUGAUGUCGCUCCUGCCCUCUGCCGGGGUCCGGAAGCGACAUCUCAGGAGGUAGCUCUCAGCAGAGUGAGGAUUCCUGCCU", "RBNS enrichment (R)": 0.219}
{"Strand": "CACAAGACUCUUCGAGGGGCCAGGUCAGGGCUCAUCUUCUACCGGAAAGGGGUGAAGGCUGUGGACCCCAAGACUGGCCGGGAGAUCCCUUACACAUUUGAGGACCGAAU", "RBNS enrichment (R)": 0.27}
{"Strand": "UUGGGCAGUGCCUCUGGGCACUAAUGUUCAUUAGUCCAAGUUUUUGAAGAUCUGCACACAGUAAGUGAUCCUCAGAAAUGUCCCUUCCAGCUCACAAACUCAGUUGGCCC", "RBNS enrichment (R)": 0.354}
{"Strand": "UCAGUUUAUGUUUUGGUCCACUUUUCCAGUAUUUUAGUGGACCCUGAAAUGUGUGUGAUGUGACAUUUGUCAUUUUCAUUAGCAAAAAAAGUUGUAUGAUCUGUGCCUUU", "RBNS enrichment (R)": 0.279}
{"Strand": "CCAUCCAGUGGGCCAGCUCCCAGACAGCCAUUCCCAGGUCAUCUUCUUUAAGACAGUGCUAGAGUAGAACACGGGGCCUGUGCAUAACAAACGCCCUACUUCUAAGCUCG", "RBNS enrichment (R)": 0.345}
{"Strand": "GACAGGCCUGGCCUCACACGCCAGAUCCAAAAUGUUGACCUGGACAAUCUGUCCCUGGUGCCCAUGCAGGAGAAACCCUGAGACACAGAAGAGAAUUGCAGGGUCUUCUG", "RBNS enrichment (R)": 0.311}
{"Strand": "GUUUCCCCUGAGCAGUCUUCCUCAGGGCUCAGUGUACCCUCGGGAGACCCUGGGAGACCAAGGCAUUCCCUGAAUAUCGUCCCCUUGCCUUCCCUACCGGCCAUUUCCUU", "RBNS enrichment (R)": 0.325}
{"data": "Set 3", "target": "Histone acetyltransferase KAT6A, winged helix 2, GST fusion (KAT6A, Homo sapiens, UniProt Q92794, residues 85-181)", "technique": "protein binding microarray", "form": "double-stranded DNA, one strand shown", "matrix": "in vitro", "concentration": "not given", "setting": "8-mer, flanks averaged, mean of 2 arrays, mostly near background", "relative to": "not given", "direction": "higher = stronger binding", "Target sequence (chain)": "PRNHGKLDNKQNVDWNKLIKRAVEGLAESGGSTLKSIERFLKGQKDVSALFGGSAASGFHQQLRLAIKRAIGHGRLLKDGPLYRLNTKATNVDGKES"}
{"Strand": "CCAAGAAG", "E-score": 0.0374}
{"Strand": "CTGCTCAA", "E-score": -0.0362}
{"Strand": "GGGCAACC", "E-score": 0.152}
{"Strand": "AGGGTGAA", "E-score": 0.0499}
{"Strand": "GGACTGAA", "E-score": 0.0971}
{"Strand": "GCTGCGGA", "E-score": 0.16}
{"Strand": "GACCGCCC", "E-score": 0.124}
{"Strand": "CAGGGCCC", "E-score": -0.0502}
{"Strand": "GAATAGCA", "E-score": 0.0326}
{"Strand": "GCTGAACC", "E-score": 0.125}
{"Strand": "AAAACAAC", "E-score": -0.0574}
{"Strand": "ACGCCGAT", "E-score": 0.0701}
{"Strand": "AAGAATGG", "E-score": 0.0086}
{"Strand": "ATTAAAGC", "E-score": 0.13}
{"Strand": "ATACAGGG", "E-score": -0.0112}
{"Strand": "ATTAGACA", "E-score": 0.0515}
{"Strand": "AGGGAGGC", "E-score": 0.0842}
{"Strand": "AGTGGTCA", "E-score": -0.122}
{"Strand": "TAAAGATA", "E-score": -0.0216}
{"Strand": "CTGAACAA", "E-score": 0.0359}
{"Strand": "ATGGTATG", "E-score": -0.157}
{"Strand": "AGTGGCCC", "E-score": -0.0247}
{"data": "Set 4", "target": "Interferon regulatory factor 5, full length, phosphomimetic (IRF5, Homo sapiens, UniProt Q13568-2, residues 1-514, S451D/S453D/S456D/S462D)", "technique": "protein-binding microarray", "form": "double-stranded DNA, one strand shown", "matrix": "in vitro", "concentration": "940 nM top", "setting": "60-bp whole probe", "added": "salmon DNA 0.4 mg/ml", "relative to": "random background probes", "direction": "higher = stronger binding", "constant ends, left off below": "GCCTAGCAC … GTCTTGATTCGCTTGACGCTGCTG"}
{"Strand": "GACGGACTTCTTTTCCTGACGTGCTAG", "fitted relative affinity [z-score]": 0.337}
{"Strand": "GACGATATCAATTTCGAGACGTGCTAG", "fitted relative affinity [z-score]": 0.198}
{"Strand": "TTAGGTTTAGGTTTCGGTTAGTGCTAG", "fitted relative affinity [z-score]": 9.09}
{"Strand": "TTAGGTCTCGGGATCGGTTAGTGCTAG", "fitted relative affinity [z-score]": 1.57}
{"Strand": "TTTGGACTGCTACTGCTTTAGTGCTAG", "fitted relative affinity [z-score]": -0.545}
{"Strand": "TTAGGACTGGGGTATCGGCTAGTGCTA", "fitted relative affinity [z-score]": 0.704}
{"Strand": "TGAGGTTTCGACACTGGGTTAGTGCTA", "fitted relative affinity [z-score]": 5.52}
{"Strand": "TCATTTTTCTTTTATTAACTGTGCTAG", "fitted relative affinity [z-score]": 1.53}
{"Strand": "GACGGTATCGTTCTCCTGACGTGCTAG", "fitted relative affinity [z-score]": 4.56}
{"Strand": "GACGGTCTCCTTCTCTTGACGTGCTAG", "fitted relative affinity [z-score]": 0.653}
{"Strand": "GACGGTCTCGGTCTCGGGTCGTGCTAG", "fitted relative affinity [z-score]": 5.76}
{"Strand": "GACGGTTTAGGTTTCGGGACGTGCTAG", "fitted relative affinity [z-score]": 5.21}
{"Strand": "GACGGTTCCGGTTTCGGTACGTGCTAG", "fitted relative affinity [z-score]": 8.72}
{"Strand": "GACGAACTGAATATCGAGACGTGCTAG", "fitted relative affinity [z-score]": -0.273}
{"Strand": "TTAGGACTGGACACTGTGTTAGTGCTA", "fitted relative affinity [z-score]": -0.484}
{"Strand": "TTAAGTATCGGTCTCGGTTAGTGCTAG", "fitted relative affinity [z-score]": 10.1}
{"Strand": "TCACTCCTCCAGGTTCTCACTGTGCTA", "fitted relative affinity [z-score]": 0.821}
{"Strand": "GACGAACTGGGGTATCGAGACGTGCTA", "fitted relative affinity [z-score]": 1.03}
{"Strand": "GACGATATCGGTATCGAGACGTGCTAG", "fitted relative affinity [z-score]": 2.33}
{"note": "A few entries again (set 1):"}
{"Modification": "2'F-ANA at 1 9 10 12 13 14", "mean fluorescence intensity": "46.5 a.u."}
{"Modification": "2'F-ANA at 1 3 4 7 8 11 13 14", "mean fluorescence intensity": "104 a.u."}
{"Modification": "2'F-ANA at 2 5 7 8 9 15", "mean fluorescence intensity": "82.5 a.u."}
{"Modification": "2'F-ANA at 5 8 15", "mean fluorescence intensity": "110 a.u."}
